Results collected from several papers.
Protocols differ between the studies behind these lines.
Organism: HIV-1
Observed: viral replication

`O=C(CN1c2c(n[nH]c2-c2cccc(Cl)c2)-c2ccccc2S1(=O)=O)NN=Cc1ccc(C(=O)O)cc1` has an EC50 of 8.3 µM (PBMC).
The EC50 of `Cc1c2c(nn1CC(=O)NCc1ccccc1Cl)-c1ccccc1S(=O)(=O)N2C` is reported as under 20 µM (PBMC).
The EC50 of `CN(C)c1ccc(C=NNC(=O)CN2c3c(n[nH]c3-c3cccc(Cl)c3)-c3ccccc3S2(=O)=O)cc1` is reported as 5.8 µM (PBMC).
For `CC(=NNC(=O)CN1c2c(-c3ccccc3)n[nH]c2-c2ccccc2S1(=O)=O)c1ccc([N+](=O)[O-])s1`, the EC50 was over 100 µM (PBMC).
For `COc1ccccc1CNC(=O)Cn1nc2c(c1C)N(C)S(=O)(=O)c1ccccc1-2`, the EC50 was under 20 µM (PBMC).
`CC(=NNC(=O)CN1c2c(-c3ccccc3)n[nH]c2-c2ccccc2S1(=O)=O)c1sccc1Cl` gave an EC50 of 17.4 µM (PBMC).
The EC50 of `N=C(N)NCCC[C@H](NC(=O)[C@H](CCCNC(=N)N)NC(=O)[C@H](CCCNC(=N)N)NC(=O)[C@H](CCCNC(=N)N)NC(=O)[C@H](CCCNC(=N)N)NC(=O)[C@H](CCCNC(=N)N)NC(=O)[C@H](CCCNC(=N)N)NC(=O)CCCCCCCCCCCCC(=O)OC[C@@H]1O[C@H](n2cc(F)c(N)nc2=O)CS1)C(=O)O` is reported as 1.5 to 3 µM (single-round infection, X4 and R5 virus).
The EC50 of `CC[C@H](C)CN(C[C@@H](O)[C@H](Cc1ccccc1)NC(=O)[C@@H](NC(C)=O)[C@@H](C)CC)S(=O)(=O)c1ccc2ncsc2c1` is reported as 0.0035 µM (Monogram susceptibility; clade C patient isolate).

Some of these lines once more:
The EC50 of `Cc1c2c(nn1CC(=O)NCc1ccccc1Cl)-c1ccccc1S(=O)(=O)N2C` is reported as under 20 µM (PBMC).
